Experimental data gathered from unrelated publications.
Parts stem from different laboratories: compare values within a part only. Substitutions count along the parent as printed.

Set 1 — method: aptamer microarray, sandwich; molecule type: DNA with 2'F-ANA; sample: in vitro; tested at: 200 nM; with: Cy3 exosite-II aptamer, 400 nM; reading: higher = stronger binding; sequence: GGTTGGTGTGGTTGG
Target: Prothrombin, mature alpha-thrombin (F2, Homo sapiens, UniProt P00734)
Setting: whole 15-mer aptamer, many near background
Modification | mean fluorescence intensity
2'F-ANA at 1 6 7 8 10 11 12 14 15 | 50.2 a.u.
2'F-ANA at 3 4 5 7 8 12 14 15 | 59.6 a.u.
2'F-ANA at 3 6 7 8 9 12 14 15 | 721 a.u.
2'F-ANA at 1 3 4 5 6 7 8 9 12 15 | 138 a.u.
2'F-ANA at 2 3 4 7 12 13 14 | 370 a.u.
2'F-ANA at 1 2 3 4 6 8 9 10 | 62.8 a.u.
2'F-ANA at 3 4 5 11 15 | 79 a.u.
2'F-ANA at 1 2 11 12 13 15 | 244 a.u.

Set 2 — method: universal PBM; molecule type: double-stranded DNA, one strand shown; sample: in vitro; tested at: not given; reading: higher = stronger binding
Target: Sal-like protein 4, full length isoform B (SALL4, Homo sapiens, UniProt Q9UJQ4-2, residues 1-616)
Setting: 8-mer, flanks averaged, mean of replicates
Sequence | E-score
ACACATTG | 0.1
AAAGGCGA | 0.11
ACGGCCGT | -0.388
AAATAAAC | 0.312
GAAACCTC | -0.194
CGATGCGA | -0.185
CGCCGTGA | -0.0986
CAGTGGAG | -0.0854

Set 3 — target: CCNA2, cyclin fold, Cln2 fusion (human); method: yeast growth competition, sequencing; sample: yeast; setting: weak parent motif; baseline: not given; reading: higher = stronger binding
Parent: MASTL docking peptide (human); PMIAKNLMCELDE
Change | normalised enrichment score
PMIAKNLMCDLDE [E10D] | -0.336
PMIMKNLMCELDE [A4M] | -0.202
PQIAKNLMCELDE [M2Q] | 0.296
PEIAKNLMCELDE [M2E] | -0.221
PMIAKNLMDELDE [C9D] | 0.0631
PMIAVNLMCELDE [K5V] | -0.239
PMIAKNSMCELDE [L7S] | -0.253
PMIAKWLMCELDE [N6W] | 0.563

Further values, each from its own experiment
Sequence | target | effect on | molecule type | tested at | measurement | value
YYFQSGNEI | HLA class I histocompatibility antigen, C alpha chain, allele C*04:01 (Homo sapiens, UniProt P10321) | peptide-MHC binding | peptide | concentration not given | binding | inactive

Some of these lines once more (set 1):
Modification | mean fluorescence intensity
2'F-ANA at 1 6 7 8 10 11 12 14 15 | 50.2 a.u.
2'F-ANA at 3 4 5 7 8 12 14 15 | 59.6 a.u.
2'F-ANA at 3 6 7 8 9 12 14 15 | 721 a.u.
